{"data": "Experimental data from different studies", "note": "Lines come from different studies, so protocols differ. Values joined by “and” are separate records of one study, mostly repeats; a detail may differ. ± gives the spread as reported."}
{"SMILES": "C[C@H]1O[C@@H](O[C@H]2CC[C@@]3(C)[C@@H](CC[C@]4(C)[C@@H]3C=C[C@]35OC[C@@]6(CCC(C)(C)C[C@H]63)[C@@H](O)C[C@]54C)[C@]2(C)CO)[C@H](O)[C@@H](O[C@@H]2O[C@H](CO)[C@@H](O)[C@H](O)[C@H]2O)[C@H]1O", "test system": "mouse, chronic-plus-binge ethanol, plasma", "setting": "dose not given, high dose", "quantity": "AST/ALT ratio", "result": "1.86 and 1.76 and 1.79 and 1.61"}
{"SMILES": "COc1cc(Nc2ncc3c(n2)-c2ccc(Cl)cc2C(c2c(F)cccc2OC)=NC3)ccc1C(=O)O", "test system": "female NOD/scid mice, ALL-8 T-cell ALL xenograft", "setting": "5.2 mg/kg, 5 days weekly, score scale 0 to 10", "how to read": "direction not given", "quantity": "median response score", "result": 6}
{"SMILES": "C=CCn1c(=O)c2cnc(Nc3ccc(N4CCN(C)CC4)cc3)nc2n1-c1ccc2c(n1)[C@@](O)(CC)CC2", "test system": "SW-620 xenograft, BALB/c nude mice", "setting": "oral, 80 mg/kg, day 20, once daily x 21", "quantity": "tumour volume difference", "result": "1030 ± 55.1 mm3"}
{"SMILES": "N#Cc1ccc2c(c1)[C@H]1CCCN(C(=O)c3ccc4[nH]cnc4c3)[C@H]1C2", "assay": "refers to: cortisol", "test system": "human, Phase II trial", "setting": "oral, 80 mg once daily, last treatment, HPA axis, mean", "quantity": "plasma level", "result": "235 nmol/L"}
{"SMILES": "O=c1c(NCCc2cccc(Cl)c2)c(Nc2ccc(Cl)cc2)c1=O", "test system": "rat", "setting": "ip repeated, 5.6 mg/kg, together with: cocaine 32 mg/kg", "quantity": "cocaine behavioural sensitization", "result": "decreased"}
{"SMILES": "O=C(O)CNC(=O)Cc1ccccc1", "test system": "ventricular cardiomyocytes, C57BL/6 mouse", "setting": "dose not given, 0.404 s", "quantity": "sarcomere length", "result": "1.72 µm"}
{"SMILES": "CC(c1cc2ccccc2s1)N(O)C(N)=O (stereo not shown)", "assay": "refers to: PGD2", "test system": "human whole blood", "setting": "3 µM, together with: Escherichia coli", "quantity": "amount", "result": "134 ± 90 pg/mL blood"}
{"SMILES": "CCN1CCN(Cc2ccc(Nc3ncc(F)c(-c4cc(F)c5nc6n(c5c4)[C@H](C)CCC6)n3)nc2)CC1", "test system": "human advanced solid tumours", "setting": "200 mg, phase Ia monotherapy RECIST 1.1", "quantity": "not evaluable response", "result": "0%"}
{"SMILES": "COc1ccccc1[C@H](Cn1c(=O)n(C(C)(C)C(=O)O)c(=O)c2c(C)c(-c3ncco3)sc21)OC1CCOCC1", "test system": "human", "setting": "200 mg, post-treatment", "quantity": "blood Triglycerides level", "result": "127 ± 54.7 mg/dL"}
{"SMILES": "Cn1cc(-c2ccc(-c3cncc(Cl)c3N3CCC4(CCNC4=O)CC3)cc2)cn1", "target or system": "COLO 205", "assay": "gene expression, microarray, refers to: BAMBI mRNA", "setting": "concentration not given, 6 h", "how to read": "relative to: untreated cells", "quantity": "log2 fold change", "result": 3.14}
{"SMILES": "Cc1noc(C)c1-c1cc(C(O)(c2ccccn2)c2ccccn2)c2nc(C3CC3)[nH]c2c1", "assay": "refers to: CCR2 expression", "test system": "human, peripheral blood", "setting": "3 mg, day 15, 1604 study, together with: enzalutamide", "quantity": "maximum inhibition", "result": "46%"}
{"SMILES": "CC(=O)Oc1cc2c(s1)CCN(C(C(=O)C1CC1)c1ccccc1F)C2 (stereo not shown)", "assay": "platelet aggregation, light transmittance aggregometry", "test system": "human, platelet-rich plasma", "setting": "dose not given, 15 min, IPA above 80 %, together with: TRAP 15 µM", "how to read": "relative to: patients", "quantity": "patients with IPA above threshold", "result": "0%"}
{"SMILES": "Nc1cccc2c1CN(C1CCC(=O)NC1=O)C2=O (stereo not shown)", "assay": "deuterium-hydrogen exchange", "test system": "aqueous phosphate buffer", "setting": "pH 7.4, 37 °C", "quantity": "exchange rate constant", "result": "-0.0349 h⁻¹"}
{"SMILES": "CCCCc1nc2c(N)nc3ccccc3c2n1Cc1ccc(CN)cc1", "assay": "IFN-γ release, ELISA", "test system": "PBMC, human", "setting": "24 h", "quantity": "concentration", "result": "~10 µM"}
{"SMILES": "CN[C@@H]1COc2c(S(=O)(=O)NC(=O)Nc3c4c(cc5c3CCC5)CCC4)cnn2C1", "assay": "refers to: IL-1β", "test system": "human participants, whole blood ex vivo", "setting": "300 mg twice daily, multiple doses, 144 h, together with: LPS/ATP", "how to read": "relative to: baseline", "quantity": "inhibition", "result": "96.2%"}
{"SMILES": "O=C(COc1ccc(Cl)cc1)NC12CC(c3nnc([C@H]4C[C@@H](OC(F)(F)F)C4)o3)(C1)C2", "test system": "healthy human, PBMC", "setting": "200 mg once daily, day 14, 4 h post-dose, median, together with: sodium arsenite ex vivo", "how to read": "relative to: baseline", "quantity": "CHAC1 mRNA change", "result": "-75.5%"}
{"SMILES": "N#Cc1ccn2c(-c3ccncc3)c(-c3ccc(F)cc3)nc2c1", "assay": "kinase binding, competitor, MIB/MS competition, refers to: YAK1", "test system": "Candida albicans cell lysate", "setting": "10 µM", "how to read": "relative to: DMSO", "quantity": "log2 fold change", "result": 0.544}
{"SMILES": "CO[C@H]1CC[C@H](N2C(=O)CNc3ncc(-c4ccc(C(C)(C)O)nc4)nc32)CC1", "assay": "flow cytometry", "test system": "stimulated monocytes, human, blood", "setting": "45 mg single dose, 24 h, mean", "how to read": "relative to: baseline", "quantity": "pAKT change from baseline", "result": "-10.6%"}
{"SMILES": "CC1(C)CCC(c2ccc(Cl)cc2)=C(CN2CCN(c3ccc(C(=O)NS(=O)(=O)c4ccc(N[C@H](CCN5CCOCC5)CSc5ccccc5)c(S(=O)(=O)C(F)(F)F)c4)cc3)CC2)C1", "assay": "cell kill, PI exclusion flow cytometry", "test system": "nodal neoplastic cells, human", "setting": "24 h", "quantity": "EC50", "result": "9.4 nM"}
